Assay results collected from several papers.
Compare with care: the assays were run in different laboratories. ± gives the spread as reported.

With `C[C@H]1O[C@@H](O[C@H]2CC[C@@]3(C)[C@H](CC[C@@H]4[C@@H]3CC[C@]3(C)[C@@H](C5=CC(=O)OC5)[C@@H](O)C[C@]43O)C2)C[C@H](O)[C@@H]1O` the IC50 was 1.2 µM (BEAS-2B; cell growth or viability, MTT; 48 h).
With `CC(=O)N[C@@H](Cc1ccccc1)C(=O)N[C@@H](C)C(=O)N1CCC[C@H]1C(=O)N1CCC[C@H]1C(=O)N[C@@H](CCC(=O)O)C(=O)N[C@@H](Cc1c[nH]cn1)C(=O)N[C@@H](CO)C(=O)N[C@H](C(=O)N[C@@H](C)C(N)=O)[C@@H](C)OP(=O)(O)O` the IC50 was 0.35 µM (U-266; cell growth or viability, MTT; 72 h).
For `C[C@H](N)[C@@H](CCCCCCCCCCCCCCC(=O)CCCCCCC[C@@H](O)[C@@H](C)N)O[C@@H]1O[C@H](CO)[C@H](O)[C@H](O)[C@H]1O`, the IC50 was 22.1 µM (MCF-12A; cell growth or viability, resazurin; 96 h).
With `CCOC(=O)[C@@H]1Cc2c(cc([N+](=O)[O-])cc2[N+](=O)[O-])[C@H](O)[C@]12C(=O)Nc1ccc(Br)cc12` the IC50 was 3.6 µM (U-87 MG; cell growth or viability, MTT; 24 h).
With `CN(C)CC1C(=O)OC2C1CCC1(C)CC1CCC1(C)OC21` (centres unmarked) the IC50 was 11.7 ± 3.1 µM (NCI/ADR-RES; cell growth, inhibitor, Alamar blue).
For `O=C(NCc1ccco1)C1CCN(S(=O)(=O)c2ccc(Cl)cc2)CC1`, the IC50 was greater than 50 µM (CHO; cell growth or viability, MTT).
With `C[C@H]1C(OCCCCCCCCCCC[P+](c2ccccc2)(c2ccccc2)c2ccccc2)O[C@@H]2O[C@@]3(C)CCC4[C@H](C)CCC1[C@]42OO3` (some centres unmarked) the IC50 was 0.153 µM (T24; cell growth or viability, MTT; 72 h).
The IC50 of `N.N.O=C([O][Pt]([Cl])([Cl])[O]C(=O)c1ccc(P(c2ccccc2)c2ccccc2)cc1)c1ccc(P(c2ccccc2)c2ccccc2)cc1.[Cl][Au].[Cl][Au]` is reported as 7.06 µM (T24; cell growth or viability, resazurin; 72 h).
`O=C(CCCN1CCC2(CC1)C(=O)NCN2c1ccccc1)N(Cc1cccs1)c1ccccc1` has an IC50 of 15 µM (MIA PaCa-2; cell growth or viability, CCK-8; 72 h).
The IC50 of `OC[C@H]1[C@@H](O)[C@@H](O)CN1Cc1ccccc1` is reported as greater than 200 µM (HCT116 p53-/-; MTS; 72 h).
`CC(=O)c1ccc2c(c1)N(CCCN(C)C)c1ccccc1S2` has an IC50 of 37.8 µM (Vero 76; cell growth or viability, neutral red).
`C1CCN(C2CCNCC2)CC1.CCCC(CCC)C(=O)[O][Pt]([OH])([Cl])[Cl].CCCCN` gave an IC50 of 11.5 µM (seven cancer cell lines; cytotoxicity; mean over panel).
For `COc1cc(C=CC(=O)CC(=O)C=Cc2ccc(OC(=O)CCC(=O)OC3OC4OC5(C)CCC6C(C)CCC(C3C)C46OO5)c(OC)c2)ccc1OC(=O)CCC(=O)OC1OC2OC3(C)CCC4C(C)CCC(C1C)C24OO3` (centres unmarked), the IC50 was 2.54 ± 0.5 µM (SK-MEL-24; cell viability, MTT; 24 h, without deferoxamine).
`Cc1cc(C)n(C(C(=O)OC(C)C)n2nc(C)cc2C)n1.F[P-](F)(F)(F)(F)F.[Cu+].c1ccc(P(c2ccccc2)c2ccccc2)cc1` has an IC50 of 10.5 ± 0.3 µM (LoVo OXP, oxaliplatin-resistant; MTT; 72 h).
For `COC(=O)C1CN1S(=O)(=O)c1c(C)cc(C)cc1C` (centres unmarked), the IC50 was 17 µM (HT-1080; cell growth or viability, MTT; 48 h).
For `C[C@@H]1CCC2[C@@H](C)[C@@H](OCCC[P+](c3ccccc3)(c3ccccc3)c3ccccc3)O[C@@H]3O[C@@]4(C)CCC1[C@@]23OO4` (some centres unmarked), the IC50 was 0.259 µM (T24; cell growth or viability, MTT; 72 h).
With `CCOC(=O)[C@H]1Cc2c(cc([N+](=O)[O-])cc2[N+](=O)[O-])[C@@H](O)[C@@]12C(=O)Nc1ccccc12` the IC50 was 25.3 µM (U-87 MG; cell growth or viability, MTT; 24 h).
`CC(C)C[C@H](NC(=O)[C@H](CC(C)C)NC(=O)[C@H](CCC(=O)O)NC(=O)[C@H](Cc1c[nH]cn1)NC(=O)[C@H](CC(C)C)NC(=O)[C@H](Cc1c[nH]cn1)NC(=O)[C@H](CCC(=O)O)NC(=O)[C@H](CC(C)C)NC(=O)[C@H](CC(C)C)NC(=O)[C@H](CCC(=O)O)NC(=O)[C@H](Cc1c[nH]cn1)NC(=O)[C@@H](N)CC(C)C)C(=O)N[C@@H](CCC(=O)O)C(=O)N[C@@H](Cc1c[nH]cn1)C(N)=O` gave an IC50 of greater than 100 µM (4T1; cell growth or viability, MTT; pH 7.4).
`C#CCSc1nc(Sc2nnnn2C)c2nnn(Cc3ccccc3)c2n1` gave an IC50 of 3.02 µM (Raji; cell growth or viability, MTS; 6 days).
With `C[C@H]1[C@H](OC(=O)CCC(=O)OCCc2ccc(O)cc2)O[C@@H]2O[C@@]3(C)CC[C@H]4[C@H](C)CC[C@@H]1[C@@]24OO3` the IC50 was 6 ± 1.5 µM (SK-MEL-24; cell viability, MTT; 24 h, together with: deferoxamine 20 µM, 1 h before).
`C[C@@H]1N=C(c2ccccc2)c2cc(C#CCCCC(=O)NO)ccc2N(C)C1=O` has an IC50 of 6.5 µM (THP-1; apoptosis, flow cytometry; 48 h).
`CC(C)C[C@H](NC(=O)[C@H](CC(C)C)NC(=O)[C@H](Cc1c[nH]cn1)NC(=O)[C@H](CCC(=O)O)NC(=O)[C@H](CC(C)C)NC(=O)[C@H](Cc1c[nH]cn1)NC(=O)[C@H](CCC(=O)O)NC(=O)[C@H](CC(C)C)NC(=O)[C@H](CC(C)C)NC(=O)[C@H](Cc1c[nH]cn1)NC(=O)[C@H](CCC(=O)O)NC(=O)[C@@H](N)CC(C)C)C(=O)N[C@@H](CCC(=O)O)C(=O)N[C@@H](Cc1c[nH]cn1)C(N)=O` gave an IC50 of greater than 100 µM (4T1; cell growth or viability, MTT; pH 6).
With `CC[C@H]1OC(=O)[C@H](C(C)C)NC(=O)[C@H](C)OC(=O)[C@@H](C(C)C)NC(=O)[C@@H](C(C)C)OC(=O)[C@H](C(C)C)NC(=O)[C@H](C)OC(=O)[C@@H](C(C)C)NC(=O)[C@@H](C(C)C)OC(=O)[C@H](C(C)C)NC(=O)[C@H](C)OC(=O)[C@@H](C(C)C)NC1=O` the IC50 was 0.4 µM (U-87 MG; cell growth or viability, SRB; 72 h).
For `C[C@H]1O[C@@H](O[C@H]2CC[C@@]3(C)[C@H](CC[C@@H]4[C@@H]3C[C@@H](O)[C@]3(C)[C@@H](C5=CC(=O)OC5)[C@@H](O)C[C@]43O)C2)C[C@H](O)[C@@H]1O`, the IC50 was 2.4 µM (BEAS-2B; cell growth or viability, MTT; 48 h).
With `CCC(C)C1OC(=O)C(NC(=O)c2cccc(NC=O)c2O)C(C)OC(=O)C(C(C)CC)OC(=O)C(C)(C)C(O)C(Cc2ccccc2)OC1=O` (centres unmarked) the IC50 was 2e-05 µM (SGC-7901; cell growth or viability, CCK-8; 72 h).
`Cc1cc(C)c(N2CCN(c3c(C)cc(C)cc3C)C2=[Se])c(C)c1.[Cl][Ag]` has an IC50 of 4 µM (HCT-15; cell growth or viability, MTT; 72 h).
With `N=C(N)NCCC[C@@H]1NC(=O)[C@H](CCCCN)NC(=O)[C@@H](Cc2ccc(O)cc2)NC(=O)[C@H](CC(=O)O)NC(=O)CNC1=O` the IC50 was 1.1 ± 0.2 µM (U-87 MG; cell adhesion to vitronectin; 2 h, 37 °C).
`CC[C@H](C)[C@H](NC(=O)[C@H](CO)NC(=O)[C@H](CCCNC(=N)N)NC(=O)[C@@H]1CCCN1C(=O)[C@H](Cc1c[nH]c2ccccc12)NC(=O)[C@H](CCCNC(=N)N)NC(=O)[C@H](CCCNC(=N)N)NC(C)=O)C(=O)N[C@@H](CC(C)C)C(=O)N[C@@H](CC(=O)O)C(=O)N[C@@H](CCC(=O)O)C(=O)N[C@@H](Cc1c[nH]cn1)C(=O)N[C@H](C(=O)N[C@@H](CCCNC(=N)N)C(=O)N[C@@H](CCCNC(=N)N)C(=O)N[C@H](C(=O)N[C@@H](Cc1c[nH]c2ccccc12)C(=O)N[C@@H](CCCNC(=N)N)C(=O)NCCCCCC(=O)N[C@@H](C)C(=O)N[C@@H](CC(C)C)C(=O)N[C@@H](C)C(=O)N1CCC[C@H]1C(=O)N[C@@H](Cc1ccc(O)cc1)C(=O)N[C@H](C(=O)N1CCC[C@H]1C(=O)N[C@@H](Cc1ccc(O)cc1)C(=O)NCC(=O)N[C@@H](CCCNC(=N)N)C(=O)N[C@@H](CCCCN)C(=O)N[C@@H](CCCCN)C(=O)N[C@@H](CCCNC(=N)N)C(=O)N[C@@H](CCCNC(=N)N)C(=O)N[C@@H](CCC(N)=O)C(=O)N[C@@H](CCCNC(=N)N)C(=O)N[C@@H](CCCNC(=N)N)C(=O)N[C@@H](CCCNC(=N)N)C(N)=O)[C@@H](C)CC)C(C)C)C(C)C` has an IC50 of 12.3 µM (CT26; cell growth or viability, CCK-8).
The IC50 of `[Cl][Au].[Se]=c1n(C2CCCCC2)ccn1C1CCCCC1` is reported as 0.6 ± 0.05 µM (H157 lung carcinoma cells; cell viability, MTT; 72 h).
The IC50 of `C[C@H]1[C@H](OCCc2ccc(O)cc2)O[C@@H]2O[C@@]3(C)CC[C@H]4[C@H](C)CC[C@@H]1[C@@]24OO3` is reported as 3.01 µM (SK-MEL-24; cell growth or viability, MTT; 24 h).
`CC1=C(C(=O)Nc2ccc(F)cc2)C(c2ccccc2Cl)NC(=S)N1` (centres unmarked) gave an IC50 of 197 µM (THP-1; cell growth or viability, MTT; 24 h).
The tracer uptake of `CN[C@](C)(C[18F])C(=O)O` is reported as 1.8 %ID/g (A549 tumour model; host not given, muscle; 30 min, tumour-bearing).
With `CC(C)C[C@H](NC(=O)[C@H](CCCCN)NC(=O)[C@H](CC(C)C)NC(=O)[C@H](CC(C)C)NC(=O)[C@H](CCCCN)NC(=O)[C@H](CCCCN)NC(=O)[C@H](CC(C)C)NC(=O)[C@H](CC(C)C)NC(=O)[C@H](CCCCN)NC(=O)[C@H](CC(C)C)NC(=O)[C@H](CC(C)C)NC(=O)[C@H](CCCCN)NC(=O)[C@H](CCCCN)NC(=O)[C@@H](N)CC(C)C)C(N)=O` the IC50 was 11.2 µM (4T1; cell growth or viability, MTT; pH 7.4).
For `Cc1cc(C)c(-n2c[n+](-c3c(C)cc(C)cc3C)c3c2-c2cccc4cccc-3c24)c(C)c1.[Cl][Pd-]([Cl])[CH2]C=Cc1ccccc1`, the IC50 was 5 µM (CHO; cell growth or viability, MTT; 72 h).
With `N=C(N)NCCC[C@H](NC(=O)[C@H](CCCNC(=N)N)NC(=O)[C@@H]1CCCN1C(=O)[C@H](CCCNC(=N)N)NC(=O)[C@H](CCCNC(=N)N)NC(=O)[C@H](CCCNC(=N)N)NC(=O)[C@H](Cc1c[nH]c2ccccc12)NC(=O)[C@H](CCCNC(=N)N)NC(=O)[C@H](CCCNC(=N)N)NC(=O)[C@H](CCCNC(=N)N)NC(=O)[C@H](CCCNC(=N)N)NC(=O)[C@H](CCCNC(=N)N)NC(=O)[C@H](Cc1c[nH]c2ccccc12)NC(=O)[C@H](CCCNC(=N)N)NC(=O)[C@H](CCCNC(=N)N)NC(=O)[C@H](Cc1ccc(O)cc1)NC(=O)[C@H](CCCNC(=N)N)NC(=O)[C@H](CCCNC(=N)N)NC(=O)[C@H](CCCNC(=N)N)NC(=O)[C@@H](N)Cc1c[nH]c2ccccc12)C(N)=O` the IC50 was 16.7 ± 1.3 µM (MCF-10A; cell viability, CellTiter-Blue; 24 h, serum-free medium).
The IC50 of `CCCCCCCCCCCCN(CCCCCCCCCCCC)C1=[S+][Au-]2([S]1)[c]1ccccc1-c1cccc[c]12` is reported as greater than 100 µM (UWB1289; cell growth or viability, MTT; 72 h).
The IC50 of `CCOC(=O)[C@@H]1Cc2c(cc([N+](=O)[O-])cc2[N+](=O)[O-])[C@H](O)[C@]12C(=O)Nc1ccc(Cl)cc12` (single isomer, unassigned) is reported as 12.6 µM (U-251; cell growth or viability, MTT; 24 h).
The IC50 of `CC[C@@]1(O)C(=O)OCc2c1cc1n(c2=O)Cc2c-1nc1cc(F)c(C)c3c1c2[C@@H](NC(=O)CO)CC3` is reported as 0.0005 µM (MDA-MB-468; cell growth or viability, ATP luminescence; 5 days).

For quick reference, copied from above:
With `C[C@H]1C(OCCCCCCCCCCC[P+](c2ccccc2)(c2ccccc2)c2ccccc2)O[C@@H]2O[C@@]3(C)CCC4[C@H](C)CCC1[C@]42OO3` (some centres unmarked) the IC50 was 0.153 µM (T24; cell growth or viability, MTT; 72 h).
The IC50 of `N.N.O=C([O][Pt]([Cl])([Cl])[O]C(=O)c1ccc(P(c2ccccc2)c2ccccc2)cc1)c1ccc(P(c2ccccc2)c2ccccc2)cc1.[Cl][Au].[Cl][Au]` is reported as 7.06 µM (T24; cell growth or viability, resazurin; 72 h).
`O=C(CCCN1CCC2(CC1)C(=O)NCN2c1ccccc1)N(Cc1cccs1)c1ccccc1` has an IC50 of 15 µM (MIA PaCa-2; cell growth or viability, CCK-8; 72 h).
